# Experimental data collected from several papers.
# Lines come from different studies, so protocols differ. “And” joins repeats or separate records; there may be more than shown. ± marks the error that the study gave.
Structure (SMILES),tested on,assay,system,conditions,how to read,endpoint,result
COC1OC(C)C(O)C(OC2OC(C)C(O)C(OC3OC(C)C(O)C(OC4OC(C)C(O)C(OC5OC(C)C(O)C(OC6OC(C)C(O)C(OS(=O)(=O)O)C6OS(=O)(=O)O)C5OS(=O)(=O)O)C4OS(=O)(=O)O)C3OS(=O)(=O)O)C2OS(=O)(=O)O)C1OS(=O)(=O)O (stereo not shown),,,human plasma,128 µg/mL,reference: control,thrombin time prolongation,1 fold
CCN(CC)CC(=O)Nc1cccc(-n2cc(-c3ccc4ccc(-c5cn(-c6cccc(NC(=O)CN(CC)CC)c6)nn5)cc4c3)nn2)c1,RCC4,"PCR angiogenesis array, item: CXCL5",,"5 x IC50, 6 h, normoxia",reference: untreated,fold regulation,-1.42
Fc1ccc(Nc2nc(NC3CCCCC3)c3cc(C(F)(F)F)ccc3n2)cc1F,β2AR/β1AR ECL2 chimera,"β-arrestin2 recruitment, antagonist, BRET",,,reference: isoprenaline maximal response,maximal inhibition,-2%
CNS(=O)(=O)Nc1nccc(Cc2c(C)c3ccc(Oc4ncccc4F)cc3oc2=O)c1F,HS-SY-II,"cell viability, CellTiter-Glo",,7 days,,IC50,574 nM
COC1OC(C)C(OC2OC(C)C(OS(=O)(=O)O)C(OC3OC(C)C(OC4OC(C)C(OS(=O)(=O)O)C(OC5OC(C)C(OS(=O)(=O)O)C(OS(=O)(=O)O)C5O)C4O)C(OS(=O)(=O)O)C3O)C2O)C(OS(=O)(=O)O)C1O (stereo not shown),,,human plasma,128 µg/mL,reference: control,thrombin time prolongation,0.9 fold
COc1cc(O)ccc1CCC(c1ccc(O)cc1)c1cc2c(c(C)c1O)OC(c1ccc(O)cc1)CC2 (mixture of isomers),,item: 17-HDHA,human whole blood,"3 µM, together with: Escherichia coli",,amount,768 ± 214 pg/mL blood
COC1OC(C)C(OS(=O)(=O)O)C(OC2OC(C)C(OS(=O)(=O)O)C(OC3OC(C)C(OS(=O)(=O)O)C(OC4OC(C)C(OS(=O)(=O)O)C(OC5OC(C)C(OS(=O)(=O)O)C(OC6OC(C)C(OS(=O)(=O)O)C(OC7OC(C)C(OS(=O)(=O)O)C(OC8OC(C)C(OS(=O)(=O)O)C(OS(=O)(=O)O)C8OS(=O)(=O)O)C7OS(=O)(=O)O)C6OS(=O)(=O)O)C5OS(=O)(=O)O)C4OS(=O)(=O)O)C3OS(=O)(=O)O)C2OS(=O)(=O)O)C1OS(=O)(=O)O (stereo not shown),,,human plasma,128 µg/mL,reference: control,thrombin time prolongation,1 fold
Cc1ncsc1-c1ccc(C(C)NC(=O)C2CC(O)CN2C(=O)C(NC(=O)CCCCCCCCCCN2CCCC(Nc3ncc(Cl)c(Nc4ccccc4S(=O)(=O)C(C)C)n3)C2)C(C)(C)C)cc1 (stereo not shown),22Rv1,"RNA-seq, item: THRB mRNA",,concentration not given,reference: DMSO,log2 fold change,-1.05
Cc1cccc2c1N(C(=O)n1ccnn1)CC2,Arabidopsis thaliana,,"wild type, seeds","100 µM, high ambient temperature",,germination rate,8.3% and 3.1% and 75% and 60.6% and 66.7% and 58.7%
CN1CCCNC(=O)c2cccc(c2)C(=O)NCCCN(C)CCCNc2cccc3c2C(=O)c2cccc(c2C3=O)NCCC1,SAS,"RNA-Seq, item: NAT14 mRNA",,"1 µM, 6 h",reference: untreated cells,log2 fold change,-1.46
c1ccc(-c2n[nH]cc2-c2ccnc3ccccc23)nc1,MPS1 (Candida albicans),"kinase binding, MIB/MS competition",Candida albicans lysate,1 µM,reference: DMSO,log2 fold change,0.56
COC1OC(C)C(OS(=O)(=O)O)C(OC2OC(C)C(OS(=O)(=O)O)C(OC3OC(C)C(OS(=O)(=O)O)C(OC4OC(C)C(OS(=O)(=O)O)C(OC5OC(C)C(OS(=O)(=O)O)C(OC6OC(C)C(OS(=O)(=O)O)C(OC7OC(C)C(OS(=O)(=O)O)C(OC8OC(C)C(OS(=O)(=O)O)C(OC9OC(C)C(OS(=O)(=O)O)C(OS(=O)(=O)O)C9O)C8O)C7O)C6O)C5O)C4O)C3O)C2O)C1O (stereo not shown),,,human plasma,128 µg/mL,reference: control,thrombin time prolongation,0.9 fold
C=C(NC(=O)c1csc(-c2nc3c(cc2O)-c2nc(cs2)C(=O)NC(C(C)O)C(=O)NC(=C(C)OC)c2nc(cs2)C(=O)NC2c4nc(cs4)C(=O)NC(COC(=O)c4c5c6c(cccc6n4O)COC(=O)C(OC4CC(C)(O)C(N(C)C)C(C)O4)C2OC5)c2nc-3cs2)n1)C(N)=O (stereo not shown),Enterococcus faecalis,microbial growth,,clinical isolate,,MIC90,0.0312 µg/mL
C=CC(=O)Nc1cccc(Cn2ncc3cnc(Nc4cnn(CCOC)c4)nc32)c1,human TEC,KINOMEscan,,100 nM,reference: control,binding,4.1%
COC1CN([C@H]2CC[C@H]([C@@]3(C)Oc4c(Cl)cc(C(=O)NCc5c(SC)cc(C)[nH]c5=O)c(C)c4O3)CC2)C1,,"RNA-seq, item: BPGM","human, whole blood","dose not given, 24 h",reference: pretreatment baseline,log2 fold change,1.7
COc1ccccc1-c1ccncc1C(=O)Nc1nnc(OCc2ccc(Cl)cc2)s1,PEO1 BRCA2-mutant ovarian cancer,,,"1.00 µM, together with: olaparib 1 µM",,colony survival,0%
COc1cc2c(NC3CCN(C(C)C)CC3)cc(N3CCOCC3)nc2cc1OCCCN1CCCC1,,"TMT quantitative proteomics, item: ALDOA","FAD AD model mice, hippocampus",dose not given,,normalised protein abundance,-0.0581 and -0.0376 and -0.0276 and -0.0152 and -0.0411 and -0.0285 and -0.045 and -0.0255
C=CC(=O)N1[C@@H](c2ccc3c(c2)OCO3)c2[nH]c3ccccc3c2C[C@H]1C(=O)N1CCN(C)CC1,human cyclin E1 N112C-3xFLAG:CDK2,"co-IP with TMT proteomics, item: PRPF19",,"concentration not given, Q9UMS4",reference: wild type DMSO,relative co-enrichment,136%
COC1OC(C)C(O)C(OC2OC(C)C(O)C(OC3OC(C)C(O)C(OC4OC(C)C(O)C(OC5OC(C)C(O)C(OC6OC(C)C(O)C(OC7OC(C)C(O)C(OC8OC(C)C(O)C(OC9OC(C)C(O)C(OC%10OC(C)C(O)C(OS(=O)(=O)O)C%10OS(=O)(=O)O)C9OS(=O)(=O)O)C8OS(=O)(=O)O)C7OS(=O)(=O)O)C6OS(=O)(=O)O)C5OS(=O)(=O)O)C4OS(=O)(=O)O)C3OS(=O)(=O)O)C2OS(=O)(=O)O)C1OS(=O)(=O)O (stereo not shown),,,human plasma,128 µg/mL,,thrombin time,9.2 s
Nc1ncc(-c2cc(-c3cnn(CC(F)(F)F)c3)ncc2F)nc1C(=O)NC1CNCC(F)C1 (stereo not shown),PLK4,KINOMEscan,,1 µM,reference: DMSO control,remaining binding,100%
COC1OC(C)C(O)C(OC2OC(C)C(O)C(OC3OC(C)C(O)C(OS(=O)(=O)O)C3OS(=O)(=O)O)C2OS(=O)(=O)O)C1OS(=O)(=O)O (stereo not shown),,,human plasma,128 µg/mL,reference: control,thrombin time prolongation,0.9 fold
CC(C)c1ccc(N(C)c2ccc3c(c2)OCC[C@H]3CNc2cnccc2C(=O)O)cc1,KYSE-150,"apoptosis, item: caspase-3/7",,72 h,reference: panobinostat,EC50,33 nM

# Repeated from above:
Structure (SMILES),tested on,assay,system,conditions,how to read,endpoint,result
C=CC(=O)Nc1cccc(Cn2ncc3cnc(Nc4cnn(CCOC)c4)nc32)c1,human TEC,KINOMEscan,,100 nM,reference: control,binding,4.1%
